Measured values collected from several papers.
A part holds a random share of what one study measured.

Sample 1 — technique: protein-binding microarray; form: double-stranded DNA, one strand shown; matrix: in vitro; concentration: 250 nM; notes: 60-bp whole probe; added: salmon DNA 0.4 mg/ml; relative to: random background probes; reading: higher = stronger binding; endpoint: log fluorescence; shared flanks, not repeated: GCCTAGCAC … GTCTTGATTCGCTTGACGCTGCTG
Target: Interferon regulatory factor 5, full length, phosphomimetic (IRF5, Homo sapiens, UniProt Q13568-2, residues 1-514, K96S/S451D/S453D/S456D/S462D)
TCATCTCCCAGACTGGAACTGTGCTAG: -0.169 z-score
GGCGGACTGCTACTGCTGACGTGCTAG: -0.501 z-score
TTCGGTTTCCTACTGCTTTAGTGCTAG: 1.71 z-score
GTGTTTTTCTCCTATTTAAGAGTGCTA: 1.99 z-score
TTAGATCACAGACTGGATTAGTGCTAG: -0.369 z-score
GAACATACTAATTTCCATTTGTGCTAG: 1.01 z-score
CTGACTTTGGAGATGACTCAGTGCTAG: -0.22 z-score
AACGATCTCAGTTTCGAGACGTGCTAG: 5.03 z-score

Sample 2 — technique: RNA Bind-n-Seq; form: RNA; matrix: in vitro; concentration: 20 nM; notes: 6-mer, flanks averaged, single round; added: 150 mM KCl; relative to: input library; reading: higher = stronger binding; endpoint: 6-mer enrichment (R)
Target: TAR DNA-binding protein 43, full length, His tag (TARDBP, Homo sapiens, UniProt Q13148, residues 1-414)
GUAAGU: 0.923
AGCUGC: 0.798
UAAACU: 0.586
UCCUUA: 0.576
GGCACA: 1.19
CUUCCA: 0.558
ACAGUC: 0.602
GCGCAA: 1.01

Sample 3 — technique: aptamer microarray, sandwich; form: DNA with 2'F-ANA; matrix: in vitro; concentration: 200 nM; added: Cy3 exosite-II aptamer, 400 nM; reading: higher = stronger binding; endpoint: mean fluorescence intensity; strand: GGTTGGTGTGGTTGG
Target: Prothrombin, mature alpha-thrombin (F2, Homo sapiens, UniProt P00734)
Notes: whole 15-mer aptamer, many near background
2'F-ANA at 1 4 5 7 8 9 11 12 13 14: 47.7 a.u.
2'F-ANA at 2 3 4 7 10 11 14: 184 a.u.
2'F-ANA at 5 6 10 11 12: 48 a.u.
2'F-ANA at 1 4 5 8 12 13 14 15: 43.2 a.u.
2'F-ANA at 6 7 9 10 13 14: 113 a.u.
2'F-ANA at 3 5 6 7 8 9 12 13 15: 169 a.u.
2'F-ANA at 2 6 8 9 11 13 14: 109 a.u.
2'F-ANA at 1 2 3 4 7 9 10 11 13: 51.2 a.u.

Other studies, line by line
O=C(CCn1c2c(c3ccccc31)CCn1c-2nc2ccccc2c1=O)N1CCN(Cc2cccnc2)CC1  remaining compound (human, microsomes or S9; 2 µM, 0.5 h): 3.2%

Repeated from above (sample 1):
TCATCTCCCAGACTGGAACTGTGCTAG: -0.169 z-score
GGCGGACTGCTACTGCTGACGTGCTAG: -0.501 z-score
TTCGGTTTCCTACTGCTTTAGTGCTAG: 1.71 z-score
GTGTTTTTCTCCTATTTAAGAGTGCTA: 1.99 z-score
